Measured values pooled from the literature.
Lines come from different studies, so protocols differ. Several values in a cell are separate wells, animals, samples, runs or records. Numbers after ± are the reported error.
Sequence of UniProt P14314 (whole entry, looked up): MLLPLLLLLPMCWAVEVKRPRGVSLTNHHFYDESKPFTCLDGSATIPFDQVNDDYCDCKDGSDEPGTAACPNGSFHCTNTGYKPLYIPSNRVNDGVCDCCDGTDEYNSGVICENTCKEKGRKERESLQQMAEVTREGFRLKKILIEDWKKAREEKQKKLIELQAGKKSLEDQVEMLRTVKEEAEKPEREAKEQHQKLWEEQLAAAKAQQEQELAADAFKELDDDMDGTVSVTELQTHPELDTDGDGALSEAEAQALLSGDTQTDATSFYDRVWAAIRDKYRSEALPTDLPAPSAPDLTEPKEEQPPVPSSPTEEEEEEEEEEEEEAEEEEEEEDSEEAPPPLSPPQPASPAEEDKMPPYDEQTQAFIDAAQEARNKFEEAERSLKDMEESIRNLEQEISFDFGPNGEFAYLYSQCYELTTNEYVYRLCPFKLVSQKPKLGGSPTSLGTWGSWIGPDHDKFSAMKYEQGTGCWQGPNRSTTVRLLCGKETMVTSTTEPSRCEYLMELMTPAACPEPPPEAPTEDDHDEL
Sequence of UniProt Q8TDX7 (whole entry, looked up): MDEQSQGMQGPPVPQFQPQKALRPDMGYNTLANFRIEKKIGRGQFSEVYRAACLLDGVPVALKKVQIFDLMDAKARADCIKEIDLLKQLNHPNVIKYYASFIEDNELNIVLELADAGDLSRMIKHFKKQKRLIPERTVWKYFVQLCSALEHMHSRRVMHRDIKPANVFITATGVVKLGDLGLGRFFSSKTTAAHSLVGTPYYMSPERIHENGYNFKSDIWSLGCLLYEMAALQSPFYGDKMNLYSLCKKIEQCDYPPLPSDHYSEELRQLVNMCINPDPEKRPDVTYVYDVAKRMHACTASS
Sequence of UniProt P00519 (whole entry, unmodified, looked up): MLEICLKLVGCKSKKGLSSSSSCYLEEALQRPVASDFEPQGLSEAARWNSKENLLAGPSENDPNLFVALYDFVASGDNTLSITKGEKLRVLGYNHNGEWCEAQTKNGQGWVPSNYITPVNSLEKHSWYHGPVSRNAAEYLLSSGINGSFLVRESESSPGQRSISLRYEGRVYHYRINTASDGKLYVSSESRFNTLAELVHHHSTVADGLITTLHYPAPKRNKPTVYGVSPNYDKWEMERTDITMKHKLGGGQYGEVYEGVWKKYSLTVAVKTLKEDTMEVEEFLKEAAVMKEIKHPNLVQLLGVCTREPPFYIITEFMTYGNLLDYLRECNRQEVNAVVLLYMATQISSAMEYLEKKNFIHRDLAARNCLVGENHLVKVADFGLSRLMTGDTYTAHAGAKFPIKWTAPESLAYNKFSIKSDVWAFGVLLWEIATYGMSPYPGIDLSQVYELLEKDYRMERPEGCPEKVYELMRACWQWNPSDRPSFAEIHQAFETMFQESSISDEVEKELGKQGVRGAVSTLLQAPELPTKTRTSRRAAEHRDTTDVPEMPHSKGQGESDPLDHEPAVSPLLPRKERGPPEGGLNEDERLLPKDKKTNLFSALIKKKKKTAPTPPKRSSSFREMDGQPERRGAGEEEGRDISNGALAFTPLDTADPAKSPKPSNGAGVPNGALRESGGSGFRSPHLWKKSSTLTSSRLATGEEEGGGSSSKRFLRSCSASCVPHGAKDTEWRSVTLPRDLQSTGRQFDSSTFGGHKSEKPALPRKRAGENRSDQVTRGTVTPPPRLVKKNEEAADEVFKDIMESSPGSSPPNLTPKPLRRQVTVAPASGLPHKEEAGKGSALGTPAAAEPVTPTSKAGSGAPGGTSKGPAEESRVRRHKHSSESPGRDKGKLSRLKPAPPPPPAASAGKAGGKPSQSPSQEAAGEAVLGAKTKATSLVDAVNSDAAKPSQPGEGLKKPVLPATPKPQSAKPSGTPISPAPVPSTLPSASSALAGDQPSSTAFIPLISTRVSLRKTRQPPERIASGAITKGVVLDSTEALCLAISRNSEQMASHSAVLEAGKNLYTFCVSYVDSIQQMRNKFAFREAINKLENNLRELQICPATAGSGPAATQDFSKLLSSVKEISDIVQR
Sequence of UniProt Q13148 (whole entry, looked up): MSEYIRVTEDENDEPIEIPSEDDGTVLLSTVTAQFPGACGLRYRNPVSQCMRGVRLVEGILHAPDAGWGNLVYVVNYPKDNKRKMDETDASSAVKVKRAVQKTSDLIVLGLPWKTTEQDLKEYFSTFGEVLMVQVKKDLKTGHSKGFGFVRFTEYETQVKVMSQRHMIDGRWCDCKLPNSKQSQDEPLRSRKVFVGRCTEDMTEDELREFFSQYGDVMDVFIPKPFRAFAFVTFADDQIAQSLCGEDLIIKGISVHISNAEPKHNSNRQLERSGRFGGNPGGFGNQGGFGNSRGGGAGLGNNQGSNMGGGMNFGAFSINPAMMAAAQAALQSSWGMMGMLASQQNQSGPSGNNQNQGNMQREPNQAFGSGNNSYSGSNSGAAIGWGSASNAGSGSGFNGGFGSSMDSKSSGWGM
Sequence of UniProt P55210 (whole entry, looked up): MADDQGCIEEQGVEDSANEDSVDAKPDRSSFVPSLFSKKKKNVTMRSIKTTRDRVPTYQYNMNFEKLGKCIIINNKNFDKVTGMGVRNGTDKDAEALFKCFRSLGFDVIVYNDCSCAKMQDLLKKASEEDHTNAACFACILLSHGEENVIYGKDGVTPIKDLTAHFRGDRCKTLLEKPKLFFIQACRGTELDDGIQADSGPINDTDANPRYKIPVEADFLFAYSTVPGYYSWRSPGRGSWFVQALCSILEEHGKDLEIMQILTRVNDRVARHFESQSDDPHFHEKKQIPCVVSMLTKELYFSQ
Sequence of UniProt Q96SW2 (whole entry, looked up): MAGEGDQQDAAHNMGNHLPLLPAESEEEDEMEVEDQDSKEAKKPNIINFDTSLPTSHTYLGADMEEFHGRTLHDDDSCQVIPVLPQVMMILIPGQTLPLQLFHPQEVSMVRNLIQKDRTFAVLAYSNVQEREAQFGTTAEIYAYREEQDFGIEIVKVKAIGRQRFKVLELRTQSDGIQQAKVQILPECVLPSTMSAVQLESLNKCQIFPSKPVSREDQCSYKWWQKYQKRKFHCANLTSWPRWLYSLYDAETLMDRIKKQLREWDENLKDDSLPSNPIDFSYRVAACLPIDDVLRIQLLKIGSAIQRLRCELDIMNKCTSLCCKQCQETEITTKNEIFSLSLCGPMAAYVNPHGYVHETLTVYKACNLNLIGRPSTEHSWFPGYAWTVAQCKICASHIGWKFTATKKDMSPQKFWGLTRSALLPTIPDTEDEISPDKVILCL
Sequence of UniProt P50990 (whole entry, looked up): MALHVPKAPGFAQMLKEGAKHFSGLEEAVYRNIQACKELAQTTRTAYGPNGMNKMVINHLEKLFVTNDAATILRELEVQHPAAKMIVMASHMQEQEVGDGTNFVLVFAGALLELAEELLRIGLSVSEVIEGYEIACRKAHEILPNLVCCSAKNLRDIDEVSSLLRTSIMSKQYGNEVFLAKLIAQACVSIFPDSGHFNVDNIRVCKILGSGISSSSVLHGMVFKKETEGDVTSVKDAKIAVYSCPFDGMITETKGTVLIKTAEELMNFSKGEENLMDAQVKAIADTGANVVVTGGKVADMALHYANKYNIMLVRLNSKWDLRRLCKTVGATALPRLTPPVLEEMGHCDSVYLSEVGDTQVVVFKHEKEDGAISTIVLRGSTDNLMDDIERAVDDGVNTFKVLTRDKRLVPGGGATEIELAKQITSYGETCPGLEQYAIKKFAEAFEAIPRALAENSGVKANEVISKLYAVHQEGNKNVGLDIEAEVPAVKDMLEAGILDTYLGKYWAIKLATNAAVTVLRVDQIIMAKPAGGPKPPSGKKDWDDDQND
Sequence of UniProt Q00987 (whole entry, unmodified, looked up): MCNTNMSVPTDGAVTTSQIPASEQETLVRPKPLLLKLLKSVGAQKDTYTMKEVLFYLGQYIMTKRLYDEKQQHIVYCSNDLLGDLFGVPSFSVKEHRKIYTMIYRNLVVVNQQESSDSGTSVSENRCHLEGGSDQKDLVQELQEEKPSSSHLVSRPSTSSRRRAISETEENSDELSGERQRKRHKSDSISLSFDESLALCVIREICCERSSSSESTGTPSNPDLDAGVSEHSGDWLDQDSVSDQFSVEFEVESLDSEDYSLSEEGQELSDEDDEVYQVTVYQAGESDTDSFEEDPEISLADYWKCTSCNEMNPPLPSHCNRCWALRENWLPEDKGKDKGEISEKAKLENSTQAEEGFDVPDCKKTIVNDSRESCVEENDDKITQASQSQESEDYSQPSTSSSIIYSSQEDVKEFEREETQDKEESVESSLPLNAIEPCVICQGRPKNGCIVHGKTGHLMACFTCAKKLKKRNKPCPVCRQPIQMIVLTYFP
Sequence of UniProt Q9HB29 (whole entry, looked up): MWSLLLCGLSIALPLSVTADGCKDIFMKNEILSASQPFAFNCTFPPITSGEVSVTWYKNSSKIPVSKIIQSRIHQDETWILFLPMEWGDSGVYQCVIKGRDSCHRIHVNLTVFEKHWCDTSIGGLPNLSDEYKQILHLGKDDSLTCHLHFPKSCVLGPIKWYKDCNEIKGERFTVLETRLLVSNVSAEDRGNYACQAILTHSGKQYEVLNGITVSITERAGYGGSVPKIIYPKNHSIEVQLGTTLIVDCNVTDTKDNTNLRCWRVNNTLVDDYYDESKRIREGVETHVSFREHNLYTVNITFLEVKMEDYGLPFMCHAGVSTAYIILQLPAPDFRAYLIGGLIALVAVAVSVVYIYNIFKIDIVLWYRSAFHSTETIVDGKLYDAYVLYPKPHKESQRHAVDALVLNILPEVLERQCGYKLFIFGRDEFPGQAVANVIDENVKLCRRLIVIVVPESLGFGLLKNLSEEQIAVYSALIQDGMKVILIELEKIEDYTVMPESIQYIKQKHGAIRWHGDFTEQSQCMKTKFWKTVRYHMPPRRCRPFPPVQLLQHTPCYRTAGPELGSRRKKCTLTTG
Sequence of UniProt P00921 (whole entry, looked up): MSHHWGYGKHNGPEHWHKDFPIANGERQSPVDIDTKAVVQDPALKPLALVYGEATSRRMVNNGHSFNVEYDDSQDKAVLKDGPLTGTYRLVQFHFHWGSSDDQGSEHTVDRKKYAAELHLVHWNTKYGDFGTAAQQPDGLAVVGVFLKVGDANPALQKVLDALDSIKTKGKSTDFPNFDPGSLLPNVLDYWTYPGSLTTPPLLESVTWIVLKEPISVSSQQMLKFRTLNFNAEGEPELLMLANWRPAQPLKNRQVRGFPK

For `CCCCCCCCCCCCC/C=C/C=O`, “isoTOP-ABPP competition ratio” read 1.1 (T-complex protein 1 subunit theta (CCT8, Homo sapiens, UniProt P50990); competitive isoTOP-ABPP; proteome, soluble, MDA-MB-231; 100 µM, 60 min, added: iodoacetamide probe; reference: DMSO over compound-treated, higher = stronger cysteine blockade).
`COC(=O)Cc1cc2c(cc1C(=O)c1ccccc1I)OCO2`: “deactivation time constant” 2.4 ± 0.1 ms (Glutamate receptor 2 (Gria2, Rattus norvegicus, UniProt P19491); glutamate-evoked current, whole-cell patch clamp; HEK-293T; concentration not given, weighted tau, 1 ms pulse, added: glutamate).
`NS(=O)(=O)c1ccc(CCN2C(=O)c3ccc(N4CCOCC4)cc3C2=O)cc1` gave an emission maximum of 539 nm (Carbonic anhydrase 2 (CA2, Bos taurus, UniProt P00921); binding).
The inhibition of `O=C(Nc1cccc(CN2CCc3nc[nH]c3C2)c1)c1cc(-c2ccccc2)n(-c2ccccc2)n1` is reported as 64% (Genome polyprotein, NS2B-NS3 protease (dengue virus type 2, UniProt P29990); enzyme activity, fluorogenic AMC substrate; 50 µM).
The ΔTm of `C[C@](O)(c1ccccc1)c1cn(C[C@H](NC(=O)OCC2c3ccccc3-c3ccccc32)C(=O)O)nn1` is reported as 2.5 °C (E3 ubiquitin-protein ligase Mdm2 (MDM2, Homo sapiens, UniProt Q00987); thermal stability, DSF; 30 µM).
For `NCc1cc2c(cc1F)C(=O)N(C1CCC(=O)NC1=O)C2` (centres unmarked), the Dmax was 69% (NEK7/CRBN (Homo sapiens, UniProt Q8TDX7+Q96SW2); degrader, Western blot; Hep3B; 6 h).
`CC(C)[C@@H]1NC(=O)[C@H](Cc2ccccc2)NC(=O)CSC[C@@H](C(N)=O)NC(=O)[C@H](CCC(=O)O)NC(=O)[C@H](CO)NC(=O)[C@H](Cc2c[nH]c3cccc(Cl)c23)NC(=O)[C@H](C2CCCCC2)NC(=O)[C@H](C(C)C)NC(=O)[C@H](Cc2ccc(O)cc2)NC(=O)[C@H](CC(=O)O)NC(=O)[C@H](Cc2c[nH]c3ccccc23)NC(=O)[C@H](Cc2ccc(N)nc2)NC(=O)[C@H](Cc2c[nH]c3ccc(Cl)cc23)NC(=O)[C@H](CCC(=O)O)NC1=O` has a remaining activity of 71% (Interleukin-1 receptor-like 2 (IL1RL2, Homo sapiens, UniProt Q9HB29); reporter gene (SEAP), inhibitor, HEK-Blue IL-36R reporter; HEK-Blue IL-36R cells; 0.046 µM, 6 h, added: IL-36β 0.03 ng/mL).
`N[C@H]1CC[C@H](Nc2nccc(-c3cccnc3Oc3ccc(NC(=O)NC4CC4)c4ccccc34)n2)CC1`: “log2 LFQ intensity” 20.7 and 19.9 and 20 and 18.4 (Glucosidase 2 subunit beta (Homo sapiens, UniProt P14314); kinobead competition pulldown, refers to: PRKCSH; HEK293/HCT116 lysate mixture; 10 µM, 1 h, 4 °C; lower = stronger competition).
`CCOC(=O)C(CC)(CCCSCCOCCNC(=O)OC(C)(C)C)NC(=O)c1ccc(C2CC2)c(Cc2ccc(F)cc2)n1` (centres unmarked) has a Ki ratio of 12 (Cannabinoid receptor 2 (CNR2, Homo sapiens, UniProt P34972); radioligand binding; reference: CB1 over CB2 (human)).
`CNC(=O)c1cnc(Nc2ccncc2)nc1-c1ccc(C)cc1`: “number of kinases hit” 0 (human kinase panel; binding, KINOMEscan; 10000 nM, %Ctrl below 1).
Under “plasma membrane localization”, `CC(C=CC=C(C)C=CC1=C(C)CCCC1(C)C)=CC=O` is recorded as 0.9 (Rhodopsin (RHO, Homo sapiens, UniProt P08100, T17M); immunostaining, refers to: opsin; COS-7 transfected; 30.00 µM, unit not given; reference: surface over total stained cells).
With `CC(=O)N[C@@H](CC(=O)O)C(=O)N[C@@H](CCC(=O)O)C(=O)N[C@H](C(=O)N[C@@H](CC(=O)O)C(=O)COC(=O)c1c(C)cccc1C)[C@@H](C)OCc1ccccc1` the kinact/KI was 678000 M⁻¹ s⁻¹ (Caspase-7 (CASP7, Homo sapiens, UniProt P55210); enzyme activity, inhibitor).
For `Cc1cnc2nc1Nc1cccc(c1)COC/C=C/COCc1cc(ccc1OCCN1CCOCC1)N2`, the remaining binding was 53% (Tyrosine-protein kinase ABL1 (ABL1, Homo sapiens, UniProt P00519, E255K); binding; 0.1 µM).
The SPR response of `O=C1c2sc(-c3ccc(N4CCC(CO)CC4)nc3F)nc2CCN1c1cccnc1` is reported as 0.92 RU (TAR DNA-binding protein 43, aggregated (TARDBP, Homo sapiens, UniProt Q13148); binding, surface plasmon resonance; brain-derived TDP-43 aggregates; 2.34 nM).
